Measurements from different studies.
Protocols differ between the studies behind these lines. ± marks the error that the study gave.
Organism: SARS-CoV-2

Compound | test | test system | setting | scale | endpoint | value
CC(C)=CCc1c(O)ccc(C(=O)/C=C/c2ccc(O)cc2)c1O | viral replication | Vero E6 | 3.125 µM | reference: mean of replicates | CPE inhibition | 0%
CN1CCC(=C2c3ccccc3Oc3ccc(Cl)cc32)CC1 | viral replication, GFP plate reader screen |  | cell-based |  | EC50 | > 20 µM
Fc1ccc(-c2ccc(CN3CCN(c4cccc5ccoc45)CC3)[nH]2)cc1 | viral replication, inhibitor | Vero E6, USA-WA1/2020 | 24 h |  | EC90 | > 2.5 µM
CCN(CC)CCOC(=O)C(O)(c1ccccc1)c1ccccc1 | viral replication, RT-qPCR | A549 expressing ACE2 |  |  | IC50 | > 10 µM
Cc1ccc(NS(=O)(=O)c2cccc(C(=O)NC3CCN(c4ncnc5[nH]cnc45)CC3)c2)cc1 |  | A549-ACE2, Wuhan-Hu-1 | 66.67 µM | reference: untreated | relative infection | 33.5%
Cn1cncc1[C@@](N)(c1ccc(Cl)cc1)c1ccc2c(c1)c(-c1cccc(Cl)c1)cc(=O)n2C | viral replication, GFP plate reader screen |  | cell-based |  | EC50 | > 100 µM
Cc1ncsc1-c1ccc(CNC(=O)[C@@H]2C[C@@H](O)CN2C(=O)[C@@H](NC(=O)COCCOCCOCCNC(=O)C[C@@H]2N=C(c3ccc(Cl)cc3)c3c(sc(C)c3C)-n3c(C)nnc32)C(C)(C)C)cc1 | viral replication | Vero E6 | concentration not given |  | activity class | active
Fc1ccc([C@@H]2CCNC[C@H]2COc2ccc3c(c2)OCO3)cc1 | viral replication, RT-qPCR | A549 expressing ACE2 |  |  | IC50 | 2.57 µM
Cc1ccc2nc(Cl)c3cc(C(=O)NCCCN4CCC(C)CC4)sc3c2c1 | cytopathic effect, cell-based CPE | USA_WA1/2020 |  |  | AC50 | 11.2 µM
O=C(O[C@@H]1Cc2c(O)cc(O)cc2O[C@@H]1c1cc(O)c(O)c(O)c1)c1cc(O)c(O)c(O)c1 | viral replication | Vero E6 | 0.7812 µM |  | CPE inhibition | 0%
COc1ccccc1C(=O)NC1CCCN(Cc2cccc(-c3ccc(C)c(Cl)c3)c2)C1 (stereo not shown) | cytopathic effect | USA_WA1/2020 | round 1, 5-point |  | efficacy | 75.3%
Cc1nn(-c2ccc(Cl)cc2)c2c1C(c1ccc(F)cc1F)C(C#N)=C(N)O2 (stereo not shown) |  | Vero C1008 | 10 µM | reference: positive control | viral titre log reduction | 0.288 log10
O=C(O)c1cc(-c2ccc(/C=C3\SC(=S)N(Cc4ccccc4)C3=O)o2)ccc1Cl |  |  | concentration not given, Paris laboratory |  | viral replication inhibition | inactive
COc1ccc(C[C@@H]2c3cc(Oc4cc(C[C@@H]5c6cc(O)c(OC)cc6CCN5C)ccc4O)c(OC)cc3CCN2C)cc1 | viral replication | Vero E6 | 6.25 µM |  | CPE inhibition | 0%
CN(C)CCOC(C)(c1ccccc1)c1ccccn1 (stereo not shown) | viral replication | Vero E6 | inactive set pIC50 4 |  | IC50 | > 10 µM
CCCCN(C)CCNC(=O)c1cc(-c2ccc(Cl)s2)nc2ccccc12 | cytopathic effect, cell-based CPE | USA_WA1/2020 |  |  | AC50 | 7.94 µM
O=C(CCCN1CCC(O)(c2ccc(Cl)cc2)CC1)c1ccc(F)cc1 | viral replication | Vero E6 | concentration not given |  | activity class | active
c1cncc(-c2c[nH]nn2)c1 | viral replication | Huh-7 |  |  | IC50 | > 2 µM
OCCN1CCN(CC/C=C2/c3ccccc3Sc3ccc(Cl)cc32)CC1 | viral replication, GFP plate reader screen | BetaCov/Belgium/GHB-03021/2020 | cell-based |  | EC50 | 7.24 µM
Cc1c(Cl)cccc1-c1ccc(CNCCSc2nnnn2-c2ccccc2)o1 | cytopathic effect | USA_WA1/2020 | round 1, 5-point |  | maximum response | 37.6%
CCN(CC)CCNC(=O)c1cc(Cl)c(NC(=O)COc2ccc(Cl)cc2)cc1OC | viral replication, GFP plate reader screen |  | cell-based |  | EC50 | 3.63 µM
NC(=O)c1ncn([C@@H]2O[C@H](CO)[C@@H](O)[C@H]2O)n1 |  |  | concentration not given, Paris laboratory |  | viral replication inhibition | inactive

Compound | test | test system | setting | scale | endpoint | value
CNC(=O)[C@@H](c1ccccc1)N1CCc2cc(OC)c(OC)cc2[C@@H]1CCc1ccc(C(F)(F)F)cc1 | viral replication, high-content imaging screen |  | cell-based |  | EC50 | > 25.1 µM
Nc1cc(Cl)c(NC2=NCCN2)c(Cl)c1 | viral replication | Huh-7 |  |  | IC50 | > 2 µM
COc1ccccc1-c1cccc(CN2CCCC(C(=O)NCc3ccc(F)cc3)C2)c1 (stereo not shown) | cytopathic effect | USA_WA1/2020 | retest, 8-point, duplicates |  | efficacy | 67.2%
COC(=O)N[C@H](C(=O)N1CCC[C@H]1c1nc(-c2ccc(-c3ccc(-c4c[nH]c([C@@H]5CCCN5C(=O)[C@@H](NC(=O)OC)C(C)C)n4)cc3)cc2)c[nH]1)C(C)C | viral replication, high-content imaging screen |  | cell-based |  | EC50 | > 100 µM
CN(CCc1ccc(Cl)c(Cl)c1)CCN1CCCC1 | viral replication, anti-nucleoprotein immunostaining | Vero E6 |  |  | IC50 | 5.37 µM
COc1cc2c(cc1OC)CC(=O)N(CCCN(C)C[C@H]1Cc3cc(OC)c(OC)cc31)CC2 | viral replication | Huh-7 |  |  | IC50 | > 2 µM
COc1ccc(Nc2nc(Nc3ccc(OC)cc3OC)nc(N3CCOCC3)n2)c(OC)c1 | cytopathic effect | USA_WA1/2020 |  |  | AC50 | 5.01 µM
Cc1nn(-c2ccc(Cl)cc2)c2c1C(c1ccc(-c3ccccc3)cc1)C(C#N)=C(N)O2 (stereo not shown) |  | Vero C1008 | 10 µM | reference: positive control | viral titre log reduction | 0.304 log10
Cc1nc2ccccn2c(=O)c1CCN1CCC(=C(c2ccc(F)cc2)c2ccc(F)cc2)CC1 | viral replication, GFP plate reader screen |  | cell-based |  | EC50 | 7.59 µM
Cc1ccc(C)c(Nc2cc(C(=O)NCCCN(C)C3CCCCC3)c3ccccc3n2)c1 | cytopathic effect | USA_WA1/2020 | round 2, 5-point |  | maximum response | 74.6%
CC(C)(C)[C@H](NC(=O)C(F)(F)F)C(=O)N1C[C@H]2[C@@H]([C@H]1C(=O)N[C@H](C#N)C[C@@H]1CCNC1=O)C2(C)C | viral replication, infectious virus | Vero E6 | 0.11 µM |  | inhibition | 88.8%
O=C(/C=C/c1ccc(O)c(O)c1/C=C/c1ccc(O)c(O)c1)O[C@H](Cc1ccc(O)c(O)c1)C(=O)O | viral replication | Vero E6 | 12.5 µM |  | CPE inhibition | 0%
N#C[C@@]1(n2ccc(N)nc2=O)O[C@H](CO)[C@@H](O)[C@H]1O | viral replication, qRT-PCR of viral RNA | Caco-2, Washington |  |  | EC90 | 0.6 ± 0.02 µM
CCC(CC)COC(=O)[C@H](C)N[P@](=O)(OC[C@H]1O[C@@](C#N)(c2ccc3c(N)ncnn23)[C@H](O)[C@@H]1O)Oc1ccccc1 | viral replication | 293T-ACE2, USA-WA1/2020 |  |  | EC90 | 0.0347 µM
Cc1nn(-c2ccc(Cl)cc2)c2c1C(c1ccc(Cl)cc1Cl)C(C#N)=C(N)O2 (stereo not shown) |  | Vero | 10 µM |  | viral titre | 346000 IU/mL
COc1ccc2c(Sc3ccccc3)c(C(=O)NCCCN3CCCCC3)[nH]c2c1 | cytopathic effect, cell-based CPE | USA_WA1/2020 | round 2, 5-point dilution |  | AC50 | 12.6 µM
CCC1(CC)C(=O)NCC(C)C1=O (stereo not shown) | viral replication, high-content imaging screen |  | cell-based |  | EC50 | > 25.1 µM
COc1ccc2cc1Oc1ccc(cc1)C[C@H]1c3cc(c(OC)cc3CCN1C)Oc1c(OC)c(OC)cc3c1[C@H](C2)N(C)CC3 | viral replication, inhibitor | Vero E6, USA-WA1/2020 | 24 h |  | EC90 | 1.7 µM
Cc1ccc(N(CC2=NCCN2)c2cccc(O)c2)cc1 | viral replication | Huh-7 |  |  | IC50 | > 2 µM
Cc1nn(-c2ccc(Cl)cc2)c2c1C(c1ccc(Cl)c(Cl)c1)C(C#N)=C(N)O2 (stereo not shown) |  | Vero C1008 | 1 µM | reference: positive control | viral titre log reduction | 0.0134 log10
COc1cccc2c(N3CCc4ccccc4C3C)nc(Nc3ccc(F)cc3C)nc12 (stereo not shown) | viral replication | 293T-ACE2, USA-WA1/2020 |  |  | EC90 | > 2.5 µM
